Results of several laboratories.
Each line is one published result; not all experiments were run side by side. ± marks the error that the study gave.

For `C[C@H]1O[C@@H](O[C@H]2CC[C@@]3(C)[C@H](CC[C@@H]4[C@@H]3C[C@@H](O)[C@]3(C)[C@@H](C5=CC(=O)OC5)CC[C@]43O)C2)C[C@H](O)[C@@H]1O[C@@H]1O[C@H](CO)[C@@H](O)[C@H](O)[C@H]1O`, the IC50 was 0.25 µM (BEAS-2B; cell growth or viability, MTT; 48 h).
With `C[C@H](N)[C@@H](CCCCCCCCCCCCCCC(=O)CCCCCCC[C@@H](O)[C@@H](C)N)O[C@@H]1O[C@H](CO)[C@H](O)[C@H](O)[C@H]1O` the IC50 was 22.1 µM (MCF-12A; cell growth or viability, resazurin; 96 h).
With `CC(=O)N[C@@H](Cc1ccccc1)C(=O)N[C@@H](C)C(=O)N1CCC[C@H]1C(=O)N1CCC[C@H]1C(=O)N[C@@H](CCC(=O)O)C(=O)N[C@@H](Cc1c[nH]cn1)C(=O)N[C@@H](CO)C(=O)N[C@H](C(=O)N[C@@H](C)C(N)=O)[C@@H](C)OP(=O)(O)O` the IC50 was 0.35 µM (U-266; cell growth or viability, MTT; 72 h).
For `CCOC(=O)[C@@H]1Cc2c(cc([N+](=O)[O-])cc2[N+](=O)[O-])[C@@H](O)[C@@]12C(=O)Nc1ccc(Cl)cc12` (single isomer, unassigned), the IC50 was 41.6 µM (U-87 MG; cell growth or viability, MTT; 24 h).
`CC[C@@H](C)[C@@H](NC(=O)[C@@H](Cc1c[nH]c2ccccc12)NC(=O)[C@H](N)CCCNC(=N)N)C(=O)N[C@H](CCSC)C(=O)N[C@H](Cc1ccc(O)cc1)C(=O)N[C@H](Cc1ccccc1)C(N)=O` gave an IC50 of 15 µM (MDA-MB-468; cell growth or viability, trypan blue).
With `C[C@H]1C(OCCCCCCCCCCCC[P+](c2ccccc2)(c2ccccc2)c2ccccc2)O[C@@H]2O[C@@]3(C)CCC4[C@H](C)CCC1[C@]42OO3` (some centres unmarked) the IC50 was 0.116 µM (T24; cell growth or viability, MTT; 72 h).
The IC50 of `Cc1cc(C)c(N2CCN(c3c(C)cc(C)cc3C)C2=[Se])c(C)c1.[Cl][Ag]` is reported as 1 ± 0.2 µM (H157 lung carcinoma cells; cell viability, MTT; 72 h).
The IC50 of `O=C(CCCN1CCC2(CC1)C(=O)NCN2c1ccccc1)N(Cc1cccs1)c1ccccc1` is reported as 15 µM (MIA PaCa-2; cell growth or viability, CCK-8; 72 h).
For `Cc1cc(O)cc(-c2nc(Nc3cc(C(F)(F)F)cc(C(F)(F)F)c3)ncc2-c2ccnc(Cl)c2)c1`, the IC50 was 9.4 ± 1.2 µM (HCT-116; 72 h).
For `CC[C@H]1OC(=O)[C@H](C(C)C)NC(=O)[C@H](C)OC(=O)[C@@H](C(C)C)NC(=O)[C@@H](C(C)C)OC(=O)[C@H](C(C)C)NC(=O)[C@H](C)OC(=O)[C@@H](C(C)C)NC(=O)[C@@H](C(C)C)OC(=O)[C@H](C(C)C)NC(=O)[C@H](C)OC(=O)[C@@H](C(C)C)NC1=O`, the IC50 was 0.4 µM (U-87 MG; cell growth or viability, SRB; 72 h).
The IC50 of `COc1cccc2c1C(=O)c1c(O)c3c(c(O)c1C2=O)C[C@@](O)(C(=O)CO)C[C@@H]3O[C@H]1C[C@H](NC(=O)CCN2C(=O)CC(SC[C@H](N)C(=O)N3CCC[C@H]3C(=O)N[C@@H](CCCCN)C(=O)N[C@@H](CCCCN)C(=O)N[C@@H](CCCCN)C(=O)N[C@@H](CCCNC(=N)N)C(=O)N[C@@H](CCCCN)C(=O)N[C@H](C(N)=O)C(C)C)C2=O)[C@H](O)[C@H](C)O1` (some centres unmarked) is reported as 6.23 ± 0.37 µM (MCF7, doxorubicin-sensitive; cytotoxicity, CCK-8; 48 h).
For `CC(C)C[C@@H](N)C(=O)NCC(=O)N[C@H](C)C(=O)N[C@H](CO)C(=O)N[C@H](Cc1c[nH]c2ccccc12)C(=O)N[C@H](Cc1c[nH]cn1)C(=O)N[C@H](CCCNC(=N)N)C(=O)N1CCC[C@@H]1C(=O)N[C@H](CC(=O)O)C(=O)N[C@H](CCCCN)C(=O)NCCCC[C@@H](NC(=O)[C@H]1CCCN1C(=O)[C@@H](CC(C)C)NC(=O)[C@H]1CCCN1C(=O)[C@@H](CCCNC(=N)N)NC(=O)[C@@H](CCCCN)NC(=O)[C@@H](CCC(N)=O)NC(=O)[C@@H](Cc1ccc(O)cc1)NC(=O)CNC(=O)[C@@H](CC(C)C)NC(=O)[C@@H](CS)NC(=O)[C@@H](CS)NC(=O)[C@@H](CCCCN)NC(=O)[C@@H](CC(=O)O)NC(=O)[C@H]1CCCN1C(=O)[C@@H](CCCNC(=N)N)NC(=O)[C@@H](Cc1c[nH]cn1)NC(=O)[C@@H](Cc1c[nH]c2ccccc12)NC(=O)[C@@H](CO)NC(=O)[C@@H](C)NC(=O)CNC(=O)[C@H](N)CC(C)C)C(N)=O`, the IC50 was 0.5 µM (SUP-T1; cell migration).
With `CCCC1(CN2c3ccccc3Sc3ccccc32)CCN(CC)C1` (centres unmarked) the IC50 was 20.7 ± 13.7 µM (Vero 76; cytotoxicity).
For `C[C@@H]1N=C(c2ccccc2)c2cc(C#CCCCC(=O)NO)ccc2N(C)C1=O`, the IC50 was 0.61 µM (Kasumi; apoptosis induction, annexin V/PI; 48 h).
`Cc1cc(C)c(-n2ccn(-c3c(C)cc(C)cc3C)c2=[Se])c(C)c1.[Cl][Ag]` has an IC50 of 4 µM (HCT-15; cell growth or viability, MTT; 72 h).
`CC(C)OC(=O)C(n1cccn1)n1cccn1.F[P-](F)(F)(F)(F)F.[Cu+].c1ccc(P(c2ccccc2)c2ccccc2)cc1` has an IC50 of 8.8 ± 1.3 µM (LoVo OXP, oxaliplatin-resistant; MTT; 72 h).
For `C[C@H]1[C@H](OCCc2ccc(O)cc2)O[C@@H]2O[C@@]3(C)CC[C@H]4[C@H](C)CC[C@@H]1[C@@]24OO3`, the IC50 was 3.01 µM (SK-MEL-24; cell growth or viability, MTT; 24 h).
For `CC(C)C[C@H](NC(=O)[C@H](CC(C)C)NC(=O)[C@H](CCC(=O)O)NC(=O)[C@H](CCC(=O)O)NC(=O)[C@H](CC(C)C)NC(=O)[C@H](Cc1c[nH]cn1)NC(=O)[C@H](Cc1c[nH]cn1)NC(=O)[C@H](CC(C)C)NC(=O)[C@H](CC(C)C)NC(=O)[C@H](CCC(=O)O)NC(=O)[C@H](CCC(=O)O)NC(=O)[C@@H](N)CC(C)C)C(=O)N[C@@H](Cc1c[nH]cn1)C(=O)N[C@@H](Cc1c[nH]cn1)C(N)=O`, the IC50 was > 100 µM (4T1; cell growth or viability, MTT; pH 6).
With `[Cl][Os][Ge]([Cl])([Cl])[Cl].c1ccc(P(c2ccccc2)c2ccccc2)cc1.c1ccccc1` the IC50 was 141 ± 1.5 µM (peripheral blood mononuclear cells; cell viability, MTT; 24 h).
`CC(C)C[C@H](NC(=O)[C@H](CCCCN)NC(=O)[C@H](CC(C)C)NC(=O)[C@H](CC(C)C)NC(=O)[C@H](CCCCN)NC(=O)[C@H](CCCCN)NC(=O)[C@H](CC(C)C)NC(=O)[C@H](CC(C)C)NC(=O)[C@H](CCCCN)NC(=O)[C@H](CC(C)C)NC(=O)[C@H](CC(C)C)NC(=O)[C@H](CCCCN)NC(=O)[C@H](CCCCN)NC(=O)[C@@H](N)CC(C)C)C(N)=O` has an IC50 of 12.1 µM (4T1; cell growth or viability, MTT; pH 6).
For `Cc1cc(C)c(S(=O)(=O)N2CC2C(N)=O)c(C)c1` (centres unmarked), the IC50 was 170 µM (HT-1080; cell growth or viability, MTT; 48 h).
The IC50 of `N.N.O=C([O][Pt]([OH])([Cl])[Cl])c1ccc(P(c2ccccc2)c2ccccc2)cc1.[Cl][Au]` is reported as 12.6 µM (T24; cell growth or viability, resazurin; 72 h).
`CC[C@@H]1NC(=O)[C@H](CCCNC(=N)N)NC(=O)[C@H](NC(=O)C(C)C)CCNC(=O)c2cc(F)c(c(F)c2)/N=N/c2c(F)cc(cc2F)C(=O)NCCNC(=O)[C@@H](Cc2ccccc2)NC1=O` has an IC50 of > 150 µM (MOLM-13; cell viability; 2 days, pep-1 transfection).

For quick reference, copied from above:
The IC50 of `O=C(CCCN1CCC2(CC1)C(=O)NCN2c1ccccc1)N(Cc1cccs1)c1ccccc1` is reported as 15 µM (MIA PaCa-2; cell growth or viability, CCK-8; 72 h).
`CC[C@@H](C)[C@@H](NC(=O)[C@@H](Cc1c[nH]c2ccccc12)NC(=O)[C@H](N)CCCNC(=N)N)C(=O)N[C@H](CCSC)C(=O)N[C@H](Cc1ccc(O)cc1)C(=O)N[C@H](Cc1ccccc1)C(N)=O` gave an IC50 of 15 µM (MDA-MB-468; cell growth or viability, trypan blue).
`CC[C@@H]1NC(=O)[C@H](CCCNC(=N)N)NC(=O)[C@H](NC(=O)C(C)C)CCNC(=O)c2cc(F)c(c(F)c2)/N=N/c2c(F)cc(cc2F)C(=O)NCCNC(=O)[C@@H](Cc2ccccc2)NC1=O` has an IC50 of > 150 µM (MOLM-13; cell viability; 2 days, pep-1 transfection).
